{"data": "Experimental data from different studies", "target": "Ephrin type-B receptor 2 (EPHB2, Homo sapiens, UniProt P29323)", "Sequence (P29323 19-1055, as in one of the studies)": "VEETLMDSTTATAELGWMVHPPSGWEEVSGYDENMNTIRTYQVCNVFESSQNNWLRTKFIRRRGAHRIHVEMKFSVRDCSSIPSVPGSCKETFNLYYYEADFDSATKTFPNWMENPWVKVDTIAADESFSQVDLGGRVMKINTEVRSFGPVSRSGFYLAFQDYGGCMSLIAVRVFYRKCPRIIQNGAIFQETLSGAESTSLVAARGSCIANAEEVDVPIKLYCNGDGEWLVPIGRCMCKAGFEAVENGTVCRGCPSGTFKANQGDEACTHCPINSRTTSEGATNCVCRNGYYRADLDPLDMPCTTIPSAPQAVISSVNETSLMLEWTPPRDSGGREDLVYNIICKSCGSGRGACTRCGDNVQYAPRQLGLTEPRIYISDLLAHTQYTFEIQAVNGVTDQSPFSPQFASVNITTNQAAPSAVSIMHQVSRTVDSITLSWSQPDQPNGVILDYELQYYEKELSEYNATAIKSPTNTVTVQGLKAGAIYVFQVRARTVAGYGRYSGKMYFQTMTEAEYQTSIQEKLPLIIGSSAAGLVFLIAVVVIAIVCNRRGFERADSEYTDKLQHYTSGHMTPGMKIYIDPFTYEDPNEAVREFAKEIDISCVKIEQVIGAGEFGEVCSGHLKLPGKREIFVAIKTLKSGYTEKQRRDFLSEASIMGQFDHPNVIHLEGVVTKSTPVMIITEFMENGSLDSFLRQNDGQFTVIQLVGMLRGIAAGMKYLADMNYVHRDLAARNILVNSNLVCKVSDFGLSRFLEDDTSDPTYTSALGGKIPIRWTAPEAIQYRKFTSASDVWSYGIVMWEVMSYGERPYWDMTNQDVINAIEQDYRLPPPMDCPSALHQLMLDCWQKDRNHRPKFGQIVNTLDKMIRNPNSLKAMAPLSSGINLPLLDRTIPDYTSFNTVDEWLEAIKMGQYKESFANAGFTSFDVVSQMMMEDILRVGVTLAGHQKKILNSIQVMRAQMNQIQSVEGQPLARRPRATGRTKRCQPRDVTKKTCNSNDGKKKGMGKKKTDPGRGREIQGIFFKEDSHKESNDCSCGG", "note": "Each line is one published result; not all experiments were run side by side."}
{"Compound": "C1=C/COCc2cc(ccc2OCCN2CCCC2)Nc2nccc(n2)-c2cccc(c2)COC/1", "conditions": "concentration not given", "quantity": "percent of control", "value": "88%"}
{"Compound": "CCN(CC)c1ccc(C2=NNC(=O)CC2C)cc1[N+](=O)[O-] (stereo not shown)", "assay": "enzyme activity, inhibitor", "conditions": "10 µM", "how to read": "reference: vehicle", "quantity": "remaining activity", "value": "99%"}
{"Compound": "CCCOc1ccc(OC)c(F)c1C(=O)c1ccc(C(=O)N[C@@H]2CNC[C@H]2NC(=O)c2ccc3[nH]ncc3c2)cc1", "assay": "enzyme activity", "conditions": "10 µM", "quantity": "remaining activity", "value": "101%"}
{"Compound": "C[C@@H](c1ccc(-n2cnc3c(N)ncnc32)cc1)N1CCc2nn(C)c(Cc3ccccc3)c2C1=O", "assay": "KINOMEscan", "conditions": "0.1 µM", "how to read": "reference: DMSO control", "quantity": "remaining binding", "value": "95%"}
{"Compound": "O=C1NC(=O)/C(=C/c2ccc(-c3ccc(F)cc3O)o2)S1", "assay": "enzyme activity", "conditions": "10 µM", "quantity": "remaining activity", "value": "100%"}
{"Compound": "C=CC(=O)N1CCC(COCC(=O)N2CCN(c3nc(-c4cnc(N)nc4C(F)F)nc(N4CCOC[C@@H]4C)n3)CC2)CC1", "assay": "KINOMEscan", "conditions": "1 µM", "how to read": "reference: DMSO control", "quantity": "remaining binding", "value": "94%"}
{"Compound": "CNc1ncc2c(/C=C/C(=O)N3CCC(OC)CC3)nn(Cc3cccc(C(F)(F)F)c3)c2n1", "assay": "kinase activity, inhibitor", "conditions": "1 µM", "how to read": "reference: untreated control", "quantity": "remaining activity", "value": "92%"}
{"Compound": "C=CC(=O)N1CCC(C(=O)NCC(=O)N2CCN(c3nc(-c4cnc(N)nc4C(F)F)nc(N4CCOCC4)n3)CC2)CC1", "assay": "KINOMEscan", "conditions": "1 µM", "quantity": "remaining binding", "value": "95%"}
{"Compound": "COc1cc(F)ccc1-c1ncnc(Nc2cccc(C[S@](C)(=N)=O)c2)n1", "assay": "kinase activity", "conditions": "10 µM, together with: 10 µM ATP", "quantity": "remaining activity", "value": "72%"}
{"Compound": "O=C(NC1CCC1)c1ccc2nc(-c3cccc(NS(=O)(=O)NCCN4CCCCC4)c3)cn2c1", "assay": "enzyme activity", "conditions": "10 µM", "quantity": "remaining activity", "value": "100%"}
{"note": "A few entries again:"}
{"Compound": "C1=C/COCc2cc(ccc2OCCN2CCCC2)Nc2nccc(n2)-c2cccc(c2)COC/1", "conditions": "concentration not given", "quantity": "percent of control", "value": "88%"}
{"Compound": "CCN(CC)c1ccc(C2=NNC(=O)CC2C)cc1[N+](=O)[O-] (stereo not shown)", "assay": "enzyme activity, inhibitor", "conditions": "10 µM", "how to read": "reference: vehicle", "quantity": "remaining activity", "value": "99%"}
